# Measured values from different studies.
# Values joined by “and” are separate records of one study, mostly repeats; a detail may differ. ± marks the error that the study gave.
Structure (SMILES),assay,system,setting,quantity,result
COc1ncccc1-c1cnn2ccc(N3CCN(C(=O)OC(C)C)CC3)nc12,,"rat, thermal hyperalgesia model, plasma","oral, 0.1 mg/kg, 180 min",free drug concentration,0.2 nM
COc1ccc(-c2c(-c3ccc(C#N)c(F)c3)nc(N3CCC(N)CC3)n(C)c2=O)cc1F,refers to: Pruritus,neuroendocrine neoplasm patients,"oral, 60 mg, any grade, dose expansion",treatment-related adverse event incidence,6%
C=CCNc1c(O)cc2c(O)c1C[C@@H](C)C[C@H](OC)[C@H](O)[C@@H](C)/C=C(\C)[C@H](OC(N)=O)[C@@H](OC)/C=C\C=C(/C)C(=O)N2,,"unresectable or metastatic STS, GIST, other","intravenous, 400 mg/m^2",patients with vomiting TEAE,34%
NCCCC[C@@H]1NC(=O)[C@@H](Cc2c[nH]c3ccccc23)NC(=O)[C@H](c2ccccc2)NC(=O)[C@@H]2C[C@@H](OC(=O)NCCN)CN2C(=O)[C@H](Cc2ccccc2)NC(=O)[C@H](Cc2ccc(OCc3ccccc3)cc2)NC1=O,,healthy human volunteers,1950 µg twice daily,subjects with adverse event Dizziness,21%
O=C(O)CCCOc1ccc(F)cc1-c1cc(-c2ccccc2C(F)(F)F)n(-c2ccccc2)n1,refers to: γ-glb,"Crl:CD(SD) rats, male, serum","iv, 25 µg/kg, 14 days",serum protein fraction,4.3 ± 0.7%
COc1ccc2c(c[n+](C)c3c4cc5c(cc4ccc23)OCO5)c1OC,LC-MS/MS,"rat, plasma",dose not given,MRT(0-inf),4.38 h
O=C1OC[C@H]2OC(O)[C@H](O)[C@@H](O)[C@@H]2OC(=O)c2cc(O)c(O)c(O)c2-c2c(O)c(O)c3oc(=O)c4c(c(O)c(O)c5oc(=O)c2c3c54)-c2c1cc(O)c(O)c2O (mixture of isomers),subacute oral toxicity,BALB/c mice,"oral, 1000 mg/kg/day, 28 days",liver weight,1.3 g
CC(C)CC(=O)OC[C@H]1O[C@@](C#N)(c2ccc3c(N)ncnn23)[C@H](O)[C@@H]1O,,Rats plasma,"5 µM, 60 min",remaining compound,0%
CCc1ccc(CC/C=C/c2ccc3c(c2)C(=O)CC3)cc1,,"Sprague-Dawley rat, male","oral, 450 mg/kg/day, 14 days",Phosphorus,3.21 mM
C[C@]1(CO)Cc2ncn(-c3ccc(C#N)c(Cl)c3)c2C(=O)O1,,healthy humans,"10 mg, fed",drug-related Dizziness incidence,0%
CC1(C)[C@H](C(=O)OCc2cccc(Oc3ccccc3)c2)[C@@H]1C=C(Cl)Cl,refers to: CYP3A4,"human, age 1 year, recombinant human CYP3A4",0.1 µM,enzyme contribution to clearance,0.64%
COc1cc2c(Oc3ccc4[nH]c(C)cc4c3F)ccnc2cc1OCC1(N)CC1,,paediatric recurrent refractory sarcoma,12 mg,grade 1 or 2 weight loss,18.2%
C[C@@H]1NC(=O)[C@H](CCCCNC(=O)CO/N=C/C(=O)NCCCC[C@@H]2NC(=O)[C@@H](Cc3ccccc3)NC(=O)[C@H](CC(=O)O)NC(=O)CNC(=O)[C@H](CCCNC(=N)N)NC2=O)NC(=O)CNC(=O)[C@@H]2CCCN2C(=O)[C@H](CCCCNC(=O)CO/N=C/C(=O)NCCCC[C@@H]2NC(=O)[C@@H](Cc3ccccc3)NC(=O)[C@H](CC(=O)O)NC(=O)CNC(=O)[C@H](CCCNC(=N)N)NC2=O)NC(=O)[C@H](CCCCNC(=O)CN2CCCNCCNCCCNCC2)NC(=O)[C@H](CCCCNC(=O)CO/N=C/C(=O)NCCCC[C@@H]2NC(=O)[C@@H](Cc3ccccc3)NC(=O)[C@H](CC(=O)O)NC(=O)CNC(=O)[C@H](CCCNC(=N)N)NC2=O)NC(=O)CNC(=O)[C@@H]2CCCN2C(=O)[C@H](CCCCNC(=O)CO/N=C/C(=O)NCCCC[C@@H]2NC(=O)[C@@H](Cc3ccccc3)NC(=O)[C@H](CC(=O)O)NC(=O)CNC(=O)[C@H](CCCNC(=N)N)NC2=O)NC1=O [copper-64 labelled],biodistribution after PET,"mouse, U-87 MG tumour xenograft, blood","intravenous, 24 h",tissue uptake,0.03 %ID/g
CN1CC[C@@H](c2c(O)cc(O)c3c(=O)cc(-c4ccc(C(F)(F)F)cc4Cl)oc23)[C@@H]1CO,refers to: Hypoalbuminemia,relapsed or refractory haematological malignancies,"oral, dose not given, grade 3 to 4, all arms",patients with adverse event,5%
C=CC(=O)N1CC[C@H](n2nc(C#Cc3cc(OC)cc(OC)c3)c3c(N)ncnc32)C1,,human patients,"oral, dose not given, QD regimen, adverse drug reaction, with: lanthanum carbonate hydrate","any adverse drug reaction, any grade",100%
COc1cccc(Oc2ccccc2NC(=O)CNC(=O)c2cccc3ccccc23)c1,,"esterase-deficient SCID mice, male, blood","oral, 15 mg/kg/day, 14 days, toxicity study",hematocrit,41.5% and 44.9% and 41%
C[C@@H](NC(=O)N1C(=O)[C@H](Cc2ccnc(N)c2)[C@H]1C(=O)O)C1CCCCC1,,healthy adult Chinese volunteers,"continuous intravenous infusion, 2.25 mg/kg/h, 5-day infusion, CTCAE 5.0 grading",incidence of drug-related AEs,25%
CO[C@H]1C[C@@H]2CC[C@@H](C)[C@@](O)(O2)C(=O)C(=O)N2CCCC[C@H]2C(=O)O[C@H]([C@H](C)C[C@@H]2CC[C@@H](OC(=O)NCCOCCOCCOCCOCCOCCOCCOCCOCCC(=O)N3CCc4cc(Cn5nc(-c6ccc7oc(N)nc7c6)c6c(N)ncnc65)ccc4C3)[C@H](OC)C2)C[C@@H](O)[C@H](C)/C=C(\C)[C@@H](O)[C@@H](OC)C(=O)[C@H](C)C[C@H](C)/C=C/C=C/C=C/1C,"phase 1 dose escalation, refers to: fatigue",advanced solid tumour patients,"intravenous, 10 mg weekly, any grade",dose-reducing adverse events,0%
O=C(c1ccc(F)c(F)c1Nc1ccc(I)cc1F)N1CC(O)([C@@H]2CCCCN2)C1,,patients aged 6 to sample A years,"oral, dose not given",AE leading treatment withdrawal,7%
CN1CCN(S(=O)(=O)c2cc([N+](=O)[O-])ccc2N(CCOS(C)(=O)=O)CCOS(C)(=O)=O)CC1,,"naive female NSG mice, plasma","intraperitoneal, 10 mg/kg",elimination rate constant,0.00112 s⁻¹
CCOC(=O)C(CC)(CCCSCCOCCOCCNc1ccc([N+](=O)[O-])c2nonc12)NC(=O)c1ccc(C2CC2)c(Cc2ccc(F)cc2)n1 (racemic),,aqueous buffer with DMSO,,kinetic solubility,9 µg/mL
CN1CCN(c2cccc3c2CCN(C(=O)/C=C/c2c(-n4cnnn4)ccc(Cl)c2F)[C@@H]3C(=O)Nc2ccc(C(=O)O)cc2)C(=O)C1,,healthy human subjects,"intravenous infusion, 20 mg/h, 5 days",deaths,0%
c1ccc(CCc2nnn[nH]2)cc1,,,"pH 7.4, second measurement",logD,-0.22
N[C@@H]1c2ccccc2OC12CCN(c1cnc3c(N4CCCc5ncccc54)n[nH]c3n1)CC2,,advanced metastatic solid tumour patients,"oral, 10 mg once daily, cycle 1, 21 days",dose-limiting toxicity,0%
CC(=O)c1c(C)c2cnc(Nc3ccc(C4CCN(CCS(C)(=O)=O)CC4)cn3)nc2n(C2CCCC2)c1=O,,"human, dose-escalation trial, plasma","oral, 150 mg twice daily, day 1, single dose",AUC(0-inf),3800 ng·h/mL
O=c1ccc2ccc3occc3c2o1,post-procedure stability,rat plasma,"8 ng/mL, 1 h, room temperature",accuracy,91.5%
